Measured values collected from several papers.
A part holds a random share of what one study measured. Substitutions count along the parent as printed.

Study 1
Target: OGT, full length, His-tagged (human)
Technique: phage display, sequencing
Matrix: in vitro
Concentration: 1 µg OGT
Setting: single substitutions, 15-mer displayed peptide, unchanged parent 19.6
Reference: input library
Reading: higher = stronger binding
Quantity: fold enrichment
Starting sequence: peptide; TAPFYPPAYQIQVFK
TAPNYPPAYQIQVFK [F4N]: 10.2 fold
TAPFYPPAPQIQVFK [Y9P]: 0.815 fold
TAPFRPPAYQIQVFK [Y5R]: 1.69 fold
TAPFMPPAYQIQVFK [Y5M]: 0.399 fold
TAYFYPPAYQIQVFK [P3Y]: 14.4 fold
TAPFYPPAYQIQVFS [K15S]: 10.4 fold
TAPFYPPAYQIQHFK [V13H]: 4.27 fold
TKPFYPPAYQIQVFK [A2K]: 15.6 fold

Study 2
Target: TAR DNA-binding protein 43, full length, His tag (TARDBP, Homo sapiens, UniProt Q13148, residues 1-414)
Technique: RNA Bind-n-Seq
Form: RNA
Matrix: in vitro
Concentration: 20 nM
Setting: 6-mer, flanks averaged, single round
Added: 150 mM LiCl
Reference: input library
Reading: higher = stronger binding
Quantity: 6-mer enrichment (R)
CUCACC: 0.917
CACAUC: 0.845
AGUUUC: 0.934
GAAAUU: 0.89
AUGGGG: 1.33
UUGGGC: 1.06
GGCCUU: 1.09
GAACAC: 0.836

Study 3
Target: Interferon regulatory factor 7, full length, phosphomimetic (IRF7, Homo sapiens, UniProt Q92985, residues 1-503, S471D/S472D/S475D/S476D/S477D/S483D/S484D/S487D)
Technique: protein-binding microarray
Form: double-stranded DNA, one strand shown
Matrix: in vitro
Concentration: 2200 nM top
Setting: 60-bp whole probe
Added: salmon DNA 0.4 mg/ml
Reference: random background probes
Reading: higher = stronger binding
Quantity: fitted relative affinity
Constant ends, left off below: GCCTAGCAC … GTCTTGATTCGCTTGACGCTGCTG
Residues (chain): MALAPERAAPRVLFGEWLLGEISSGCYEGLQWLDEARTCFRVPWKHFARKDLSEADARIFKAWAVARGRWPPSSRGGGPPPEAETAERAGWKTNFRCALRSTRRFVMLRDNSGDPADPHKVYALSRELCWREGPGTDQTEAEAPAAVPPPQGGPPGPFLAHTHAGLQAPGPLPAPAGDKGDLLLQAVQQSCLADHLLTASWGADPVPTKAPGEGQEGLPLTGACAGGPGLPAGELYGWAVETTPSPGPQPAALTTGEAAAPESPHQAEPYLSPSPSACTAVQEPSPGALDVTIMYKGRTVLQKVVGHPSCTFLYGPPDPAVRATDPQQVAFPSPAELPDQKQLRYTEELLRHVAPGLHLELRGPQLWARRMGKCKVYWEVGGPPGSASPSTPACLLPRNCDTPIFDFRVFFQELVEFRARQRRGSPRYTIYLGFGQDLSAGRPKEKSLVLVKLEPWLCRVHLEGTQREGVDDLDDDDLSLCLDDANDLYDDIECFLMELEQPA
GACGGTATCCTACAGCTGACGTGCTAG: 0.471 z-score
GAAGGTTTCGGTCTCGGGACGTGCTAG: 5.9 z-score
TCAAATTTCCACTTTGAACTGTGCTAG: 1.9 z-score
TTTAGAAAGATTAGGGGTGCGTGCTAG: -0.347 z-score
GACGGTTTCGGGTTTCTGGACGTGCTA: 8.54 z-score
GACGGAGTGGACTATCGGGACGTGCTA: -0.585 z-score
GACGAACTGAGTCTCGGGACGTGCTAG: -0.297 z-score
TTAGGTATCGACTTTCGGTCAGTGCTA: 2.85 z-score

Other studies, line by line
Starting sequence: PafA, mature enzyme, eGFP fusion (Elizabethkingia meningoseptica, UniProt Q9KJX5); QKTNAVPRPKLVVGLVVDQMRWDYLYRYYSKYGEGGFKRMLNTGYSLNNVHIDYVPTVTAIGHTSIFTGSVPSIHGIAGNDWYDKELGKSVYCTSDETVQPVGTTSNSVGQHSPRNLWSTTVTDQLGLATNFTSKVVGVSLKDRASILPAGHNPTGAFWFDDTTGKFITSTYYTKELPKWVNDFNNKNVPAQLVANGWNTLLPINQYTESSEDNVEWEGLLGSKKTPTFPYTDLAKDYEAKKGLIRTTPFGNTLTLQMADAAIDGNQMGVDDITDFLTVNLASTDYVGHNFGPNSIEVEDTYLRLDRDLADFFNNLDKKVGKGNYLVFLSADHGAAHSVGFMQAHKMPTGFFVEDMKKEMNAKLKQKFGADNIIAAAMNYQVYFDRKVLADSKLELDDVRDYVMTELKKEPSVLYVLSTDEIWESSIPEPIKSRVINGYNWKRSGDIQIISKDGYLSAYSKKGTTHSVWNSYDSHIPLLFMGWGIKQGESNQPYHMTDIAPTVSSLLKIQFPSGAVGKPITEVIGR
G340A — oxyanion analog dissociation constant (tungstate, free oxyanion; microfluidic competitive inhibition; in vitro, cell-free expressed; not given, derived from inhibition constants, unchanged parent 2230 nM; lower = stronger binding): 1.97 µM
